Experimental data gathered from unrelated publications.
Parts stem from different laboratories: compare values within a part only. Changes are numbered by the printed parent chain.

Series 1
Target: CCNA1, cyclin fold, Cln2 fusion (human)
Technique: yeast growth competition, sequencing
Matrix: yeast
Setting: strong parent motif
Reference: not given
Reading: higher = stronger binding
Endpoint: normalised enrichment score
Starting sequence: viral docking peptide; YKVKRRLVFGADD
YKVKRRLVFGAAD [D12A]: 1.01
YKVKCRLVFGADD [R5C]: 0.0417
YKVKRRLVFRADD [G10R]: 1.42
YSVKRRLVFGADD [K2S]: 0.573

Series 2
Target: Hepatocyte nuclear factor 3-alpha (Foxa1, Mus musculus, UniProt P35582, residues 1-468, full length assumed)
Technique: EMSA with sequencing
Form: double-stranded DNA, one strand shown
Matrix: in vitro
Concentration: 10 and 20 nM
Setting: whole designed probe, mean of two concentrations, ends assumed
Reference: negative control set to 0
Reading: higher = stronger binding
Endpoint: normalised bound fraction
Shared flanks, not repeated: GTGAGCGGTGCCCATTGATGGGGAAC … TTTCACTGGGATCGTGGGGAC
Target sequence (chain): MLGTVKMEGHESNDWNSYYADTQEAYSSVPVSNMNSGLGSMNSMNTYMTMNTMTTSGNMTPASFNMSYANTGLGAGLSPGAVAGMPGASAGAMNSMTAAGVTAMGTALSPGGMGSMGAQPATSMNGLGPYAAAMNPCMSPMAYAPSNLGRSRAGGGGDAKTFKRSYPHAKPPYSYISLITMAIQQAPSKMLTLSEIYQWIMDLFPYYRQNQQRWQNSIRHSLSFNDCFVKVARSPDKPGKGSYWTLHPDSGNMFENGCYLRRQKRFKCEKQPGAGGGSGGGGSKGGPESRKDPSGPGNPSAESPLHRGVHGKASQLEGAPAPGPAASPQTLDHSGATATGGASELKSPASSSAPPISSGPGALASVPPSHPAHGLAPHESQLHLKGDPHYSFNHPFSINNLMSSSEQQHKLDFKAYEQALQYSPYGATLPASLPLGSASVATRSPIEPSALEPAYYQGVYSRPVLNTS
GTAATGGGGGACTGAGGTTCACTCTATAAGAAAGTTGTCCTCATTATTGGGACCTGATGTAAACAAAAGGAGTGTAATCTTTGGGAGTTGTAATGTAATCTCTGGGAGTTACTGTAATCTTGCCATCATCATTCAAGGAAGGTAAACCCAGGAGCAAGAAGAGGAGCAATAAATGTGGGAATTTTGTTGAGAA: 0.164 ratio
ATCTTCCCCCTCTTCCTTGCCCCACCAGCTCACCTACGGGGGTTATTTGCACAAAGGAAAATAAATAAAGCCGGCATTCGTTAACGCAGTTCTGGCGCAAACTGCTGTTTGCTCTGCATCTAACATGGTCCTTACGCGAGGCGTGGCTCCGGGAGAGCAAAGCACCGTGTCAGGCGCATGATCCGGGCTCGCC: 0.396 ratio
TCCCCATGGCTGATATGTTATTTTCCTCATCTACAGAGATTTCTGTCCACCAAGAACTCCATCATAGTGTTTTTACATTCTCCATTTTTATGCAGATTACAGAAACAGAAACTGTCCTTTTCAGATGGGGTCTCAAGCGCAGCCCAACATACCACAGGAAGAAATTGCCCCATCTTCCCTGGAGAAAATGCCA: 0.000596 ratio
ATCTTCCCCCTCTTCCTTGCCCCACCAGCTCACCTTCCCGGGTTATTTGCAGATAGGAAAATAAATAAAGCCGGCATTCGTTAACCCTCTTCACGCGCATACTGCTGTTTGCTCTGGATCGATGAATCATGTTTGGCGACGCCAGGCTCCGGGAGAGCAAAGCACCGTGTCAGGGCCATGATCCGGGGTGGCC: 0.382 ratio
ATCTTCCCCCTCTTCCTTGCCCCACCAGCTCACCTACGGGGGTTATTTGCACAAAGGAAAATAAATAAAGCCGGCATTCGTTAACCCTCTTCTGGCGCAAACTGCTGTTTGCTCTGCATGAATCATGGTCCTTACGCGAGGCGTGGCTCCGGGAGAGCAAAGCACCGTGTCAGGCGCATGATCCGGGGTGGCC: 0.387 ratio
GTGCTCAGCAGCCTTCAACATTAGGATGTGACGCACTTGGAAGCTTGCTCCTTCCTGGTTATCAGCCAAGACAGTGTTGACAGTTGATCGTTCAGTAATCTTTATCTCTGCACATAGCGGTAAATGACACCGCAATAAATAAATGTTAGGGAGAAAATGCAGGCAAAACTTCACAATAAAAGCGAGGCATTTC: 0.0106 ratio
TCCATGTAATGAAAGGTGATGAATTTAGCTTGCTTTCTCTGCTTCCTTCTTTCAGTCCCTGCCAGTCACATATTTATTTACTTCTTCTTCTATTATTTACTTTTAGAAATTTAAATAATATATTTCAACATCTATTTCCTGACTTCTTGTTGGATCATTGCCTGTACAAAAATGATTTTGTTTTATTCTCATA: 0.449 ratio
ACAACATCAGGTCATTATTTATCCACTTGTCCTTTTTTTTTTTATCATTCCTTTGAACTGCCTGCATTTGCTTATGGTCATATTTCTCAGTCTGTAAACAGCCCGAGTAGCTGTTCTATTTCTCTAAATAGAGTCTTAGGTCATTTTATTATCCAGAATTGTAAGTCATCAGAATGCACCCATCTGTTGTCCT: 0.133 ratio

Series 3
Target: UBE2W UBC core domain (UniProt Q96B02)
Technique: yeast two-hybrid
Matrix: yeast
Setting: mostly zero background
Reference: not given
Reading: higher = stronger interaction
Endpoint: lacZ reporter activity
B1: TRIM68 RING domain (UniProt Q6AZZ1); chain LVEAIVEEVACPICMTFLREPMSIDCGHSFCHSCLSGLWEIPGESQNWGYTCPLCRAPVQPRNLRP
B2: SHPRH RING domain (UniProt Q149N8); chain KTSGGVNPEPCPICARQLGKQWAVLTCGHCFCNECISIIIEQYSVGSHRSSIKCAICRQTTSHKEISY
B3: RNF7 RING domain (UniProt Q9UBF6); chain AICRVQVMDACLRCQAENKQEDCVVVWGECNHSFHNCCMSLWVKQNNRCPLCQQDWVVQRIGK
B4: RNF130 RING domain (UniProt Q86XS8); chain DKETDPDFDHCAVCIESYKQNDVVRILPCKHVFHKSCVDPWLSEHCTCPMCKLNILKALGIV
Residues (chain): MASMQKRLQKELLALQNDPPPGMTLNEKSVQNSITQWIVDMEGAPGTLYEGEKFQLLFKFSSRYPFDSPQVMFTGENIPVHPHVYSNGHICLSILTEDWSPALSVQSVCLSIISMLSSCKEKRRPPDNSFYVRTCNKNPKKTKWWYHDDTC
B1 (TRIM68 RING domain): 0
B2 (SHPRH RING domain): 0
SNNDLASLFECPVCFDYVLPPILQCQSGHLVCSNCRPKLTCCPTCRGPLGSIRNLA (SIAH1 RING domain (UniProt Q8IUQ4)): 0
B3 (RNF7 RING domain): 0
FLSKVEETFQCICCQELVFRPITTVCQHNVCKDCLDRSFRAQVFSCPACRYDLGRSYAMQ (UHRF1 RING domain (UniProt Q96T88)): 0
EIKDYKARLTCPCCNMRKKDAVLTKCFHVFCFECVKTRYDTRQRKCPKCNAAFGANDFHR (RNF20 RING domain (UniProt Q5VTR2)): 0
B4 (RNF130 RING domain): 0
KITELNPHLMCALCGGYFIDATTIVECLHSFCKTCIVRYLETNKYCPMCDVQVHKTRPLL (PCGF2 RING domain (UniProt P35227)): 0

Series 4
Target: Histone acetyltransferase KAT6A, both winged helices, GST fusion (KAT6A, Homo sapiens, UniProt Q92794, residues 1-181)
Technique: protein binding microarray
Form: double-stranded DNA, one strand shown
Matrix: in vitro
Concentration: not given
Setting: 8-mer, flanks averaged, mean of 2 arrays, mostly near background
Reference: not given
Reading: higher = stronger binding
Endpoint: E-score
Construct (chain): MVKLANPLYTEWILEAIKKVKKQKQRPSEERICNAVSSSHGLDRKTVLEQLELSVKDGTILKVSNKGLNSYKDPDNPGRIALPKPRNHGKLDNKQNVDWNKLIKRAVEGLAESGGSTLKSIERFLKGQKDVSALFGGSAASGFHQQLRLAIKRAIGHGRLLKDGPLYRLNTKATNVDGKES
TGAATCAA: 0.0357
GTTTCGTA: 0.0407
CCAGTTGC: -0.137
TAGGGAGA: -0.0724
ATAGCATC: -0.106
ACTAAGTA: -0.102
CTTCCGGC: 0.116
AGCAGACG: 0.0183
